Assay results collected from several papers.
Numbered parts are unrelated; each lists some results of a single study. “And” joins repeats or separate records; there may be more than shown.
Chain of UniProt Q13237 (whole entry, looked up): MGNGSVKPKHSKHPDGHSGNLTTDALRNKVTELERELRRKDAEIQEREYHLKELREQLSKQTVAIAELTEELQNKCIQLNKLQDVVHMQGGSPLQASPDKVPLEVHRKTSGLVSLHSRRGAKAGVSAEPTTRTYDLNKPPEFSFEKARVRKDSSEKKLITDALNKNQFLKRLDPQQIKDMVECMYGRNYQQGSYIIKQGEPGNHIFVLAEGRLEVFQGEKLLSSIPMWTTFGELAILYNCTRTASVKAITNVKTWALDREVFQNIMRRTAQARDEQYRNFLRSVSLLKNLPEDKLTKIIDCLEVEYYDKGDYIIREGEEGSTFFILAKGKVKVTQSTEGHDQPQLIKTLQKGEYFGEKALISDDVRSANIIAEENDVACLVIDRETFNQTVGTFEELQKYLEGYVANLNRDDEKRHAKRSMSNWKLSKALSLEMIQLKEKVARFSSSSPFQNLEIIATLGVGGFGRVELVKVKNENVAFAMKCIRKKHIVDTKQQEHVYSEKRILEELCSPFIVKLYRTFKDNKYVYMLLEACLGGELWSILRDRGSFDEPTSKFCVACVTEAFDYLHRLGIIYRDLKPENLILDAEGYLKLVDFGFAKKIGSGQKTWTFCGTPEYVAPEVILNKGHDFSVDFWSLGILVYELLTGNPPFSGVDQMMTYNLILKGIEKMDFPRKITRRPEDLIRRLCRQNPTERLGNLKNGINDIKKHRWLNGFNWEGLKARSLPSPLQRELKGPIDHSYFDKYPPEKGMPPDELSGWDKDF
Chain of UniProt Q9NRM7 (whole entry, looked up): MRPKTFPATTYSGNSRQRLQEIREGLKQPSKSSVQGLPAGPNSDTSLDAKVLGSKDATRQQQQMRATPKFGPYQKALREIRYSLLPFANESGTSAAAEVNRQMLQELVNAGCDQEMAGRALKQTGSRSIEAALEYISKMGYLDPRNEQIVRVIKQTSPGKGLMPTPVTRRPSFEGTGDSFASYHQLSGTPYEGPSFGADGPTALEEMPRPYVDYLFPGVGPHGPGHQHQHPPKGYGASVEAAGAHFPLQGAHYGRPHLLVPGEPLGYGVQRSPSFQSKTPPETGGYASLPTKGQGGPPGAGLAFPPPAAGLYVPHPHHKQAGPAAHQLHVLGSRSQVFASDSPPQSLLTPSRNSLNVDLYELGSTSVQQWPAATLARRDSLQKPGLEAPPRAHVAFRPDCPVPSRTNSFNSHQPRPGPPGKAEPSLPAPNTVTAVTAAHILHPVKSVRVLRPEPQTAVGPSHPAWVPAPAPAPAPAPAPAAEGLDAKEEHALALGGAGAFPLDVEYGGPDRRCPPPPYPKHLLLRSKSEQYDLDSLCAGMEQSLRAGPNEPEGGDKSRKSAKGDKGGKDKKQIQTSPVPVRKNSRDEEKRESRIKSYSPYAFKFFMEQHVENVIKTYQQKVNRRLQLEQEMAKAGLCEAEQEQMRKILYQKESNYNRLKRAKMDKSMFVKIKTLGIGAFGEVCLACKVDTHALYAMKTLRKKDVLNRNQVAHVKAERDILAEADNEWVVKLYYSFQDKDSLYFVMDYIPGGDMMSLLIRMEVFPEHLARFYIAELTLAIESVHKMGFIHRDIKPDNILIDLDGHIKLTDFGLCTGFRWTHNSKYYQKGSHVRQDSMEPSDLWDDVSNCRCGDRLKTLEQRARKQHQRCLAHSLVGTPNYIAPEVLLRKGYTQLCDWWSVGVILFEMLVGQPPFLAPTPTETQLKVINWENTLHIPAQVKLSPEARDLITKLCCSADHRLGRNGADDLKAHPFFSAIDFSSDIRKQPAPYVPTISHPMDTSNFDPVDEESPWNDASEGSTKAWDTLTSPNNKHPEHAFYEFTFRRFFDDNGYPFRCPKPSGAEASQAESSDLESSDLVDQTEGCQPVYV
Chain of UniProt P47898 (whole entry, looked up): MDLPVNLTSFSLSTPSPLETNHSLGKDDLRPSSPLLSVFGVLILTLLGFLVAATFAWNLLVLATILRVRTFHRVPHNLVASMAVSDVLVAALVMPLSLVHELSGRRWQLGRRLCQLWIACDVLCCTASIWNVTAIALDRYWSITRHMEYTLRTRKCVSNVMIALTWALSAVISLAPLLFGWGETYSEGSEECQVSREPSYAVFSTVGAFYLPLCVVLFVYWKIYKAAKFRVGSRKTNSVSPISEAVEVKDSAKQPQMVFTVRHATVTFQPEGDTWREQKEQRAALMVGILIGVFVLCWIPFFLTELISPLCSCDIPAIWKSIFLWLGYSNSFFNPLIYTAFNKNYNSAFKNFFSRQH

Study 1
Target: DNA polymerase theta, ATPase domain (POLQ, Homo sapiens, UniProt O75417)
Chain of UniProt O75417 (whole entry, unmodified, looked up): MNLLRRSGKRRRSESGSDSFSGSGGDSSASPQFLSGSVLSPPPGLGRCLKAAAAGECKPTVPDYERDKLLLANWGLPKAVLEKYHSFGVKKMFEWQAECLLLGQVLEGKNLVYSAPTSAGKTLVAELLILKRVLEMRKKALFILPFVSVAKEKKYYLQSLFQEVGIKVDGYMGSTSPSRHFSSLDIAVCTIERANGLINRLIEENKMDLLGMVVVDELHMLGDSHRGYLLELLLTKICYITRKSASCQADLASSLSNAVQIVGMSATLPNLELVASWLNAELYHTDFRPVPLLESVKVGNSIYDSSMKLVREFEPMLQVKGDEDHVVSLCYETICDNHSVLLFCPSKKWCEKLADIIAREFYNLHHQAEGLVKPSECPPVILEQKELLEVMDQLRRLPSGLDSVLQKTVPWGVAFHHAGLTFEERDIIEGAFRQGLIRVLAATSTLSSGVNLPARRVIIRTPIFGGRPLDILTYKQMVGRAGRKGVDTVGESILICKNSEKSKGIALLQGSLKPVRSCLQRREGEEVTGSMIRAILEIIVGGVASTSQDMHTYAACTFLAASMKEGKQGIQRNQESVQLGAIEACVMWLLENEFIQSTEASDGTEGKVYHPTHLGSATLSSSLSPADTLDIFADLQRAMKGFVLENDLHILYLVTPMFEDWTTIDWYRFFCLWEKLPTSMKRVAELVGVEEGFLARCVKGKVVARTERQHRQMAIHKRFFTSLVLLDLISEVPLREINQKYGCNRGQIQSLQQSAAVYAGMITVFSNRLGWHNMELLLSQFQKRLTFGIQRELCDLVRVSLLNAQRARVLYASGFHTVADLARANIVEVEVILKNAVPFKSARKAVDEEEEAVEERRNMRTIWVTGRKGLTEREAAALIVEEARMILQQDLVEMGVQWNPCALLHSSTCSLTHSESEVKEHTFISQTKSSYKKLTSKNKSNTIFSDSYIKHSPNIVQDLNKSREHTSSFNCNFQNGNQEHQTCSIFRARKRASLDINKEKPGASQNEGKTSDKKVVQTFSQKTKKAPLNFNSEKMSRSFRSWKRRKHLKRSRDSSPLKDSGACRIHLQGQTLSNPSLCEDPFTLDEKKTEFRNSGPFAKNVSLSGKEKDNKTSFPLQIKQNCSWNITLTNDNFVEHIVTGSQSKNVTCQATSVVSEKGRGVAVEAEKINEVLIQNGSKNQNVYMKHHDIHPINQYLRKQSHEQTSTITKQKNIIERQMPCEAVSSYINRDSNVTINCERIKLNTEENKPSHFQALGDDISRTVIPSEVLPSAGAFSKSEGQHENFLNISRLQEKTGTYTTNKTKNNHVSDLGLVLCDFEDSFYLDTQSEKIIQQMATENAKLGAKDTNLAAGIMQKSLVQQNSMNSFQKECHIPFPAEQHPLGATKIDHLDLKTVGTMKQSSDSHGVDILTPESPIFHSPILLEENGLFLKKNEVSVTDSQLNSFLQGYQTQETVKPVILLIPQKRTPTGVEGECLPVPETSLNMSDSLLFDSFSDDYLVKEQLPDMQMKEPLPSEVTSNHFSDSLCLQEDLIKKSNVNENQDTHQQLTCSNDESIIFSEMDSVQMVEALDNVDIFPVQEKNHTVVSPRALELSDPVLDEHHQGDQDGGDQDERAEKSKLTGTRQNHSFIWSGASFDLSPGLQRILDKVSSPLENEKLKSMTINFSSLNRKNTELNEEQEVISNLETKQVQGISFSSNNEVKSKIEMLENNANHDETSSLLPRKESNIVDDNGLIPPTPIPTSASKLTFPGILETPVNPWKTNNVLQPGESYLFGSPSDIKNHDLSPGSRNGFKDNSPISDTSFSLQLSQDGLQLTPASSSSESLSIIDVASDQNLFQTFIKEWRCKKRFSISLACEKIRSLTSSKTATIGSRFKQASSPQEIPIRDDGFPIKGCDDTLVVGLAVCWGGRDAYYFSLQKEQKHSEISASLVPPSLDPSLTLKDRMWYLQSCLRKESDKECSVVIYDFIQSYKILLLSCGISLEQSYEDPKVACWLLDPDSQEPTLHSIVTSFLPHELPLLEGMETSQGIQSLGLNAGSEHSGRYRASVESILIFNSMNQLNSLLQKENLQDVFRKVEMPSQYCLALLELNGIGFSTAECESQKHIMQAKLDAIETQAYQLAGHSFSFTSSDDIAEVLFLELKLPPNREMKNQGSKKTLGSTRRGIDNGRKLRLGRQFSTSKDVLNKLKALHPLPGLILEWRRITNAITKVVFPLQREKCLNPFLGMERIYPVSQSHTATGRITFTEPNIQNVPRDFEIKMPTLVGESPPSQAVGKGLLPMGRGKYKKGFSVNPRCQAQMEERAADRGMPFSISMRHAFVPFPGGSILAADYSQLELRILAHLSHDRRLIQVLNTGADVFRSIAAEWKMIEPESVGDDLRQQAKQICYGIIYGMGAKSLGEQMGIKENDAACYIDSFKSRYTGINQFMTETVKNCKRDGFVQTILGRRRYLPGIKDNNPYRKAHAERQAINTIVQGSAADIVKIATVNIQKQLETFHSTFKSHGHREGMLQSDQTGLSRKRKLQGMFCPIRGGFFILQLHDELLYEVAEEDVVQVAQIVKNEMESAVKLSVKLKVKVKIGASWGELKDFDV
Read-out: enzyme activity
Mode: inhibitor
Concentration: 77 µM
Relative to: untreated
Quantity: remaining activity
C[C@]12CC[C@@H]3c4ccc(O)cc4CC[C@H]3[C@@H]1CCC2=O: 104% and 105% and 100%
CC(C)(Oc1ccc(C2CC2(Cl)Cl)cc1)C(=O)O (stereo not shown): 99.2%
OC[C@H]1O[C@@H](Oc2ccc(O)cc2)[C@H](O)[C@@H](O)[C@@H]1O: 103% and 96.1%
CC1(C)S[C@@H]2[C@H](NC(=O)C(C(=O)O)c3ccccc3)C(=O)N2[C@H]1C(=O)O (stereo partly shown): 99.8%
CCN(c1nc(N)c(C(=O)NC(=N)N)nc1Cl)C(C)C: 101%
C[C@@H]1O[C@@H]1P(=O)(O)O: 94.2%
CC(C)c1nc(N(C)S(C)(=O)=O)nc(-c2ccc(F)cc2)c1/C=C/[C@@H](O)C[C@@H](O)CC(=O)O: 99.5%
NS(=O)(=O)c1ccc(N=Nc2c(O)[nH]c3ccc(Br)cc23)cc1: 102%
CN(C)C(=O)COC(=O)Cc1ccc(OC(=O)c2ccc(NC(=N)N)cc2)cc1: 98.3%
O=C(Nc1ccccc1)N1CCN(c2nc(-c3ccccc3)ns2)CC1: 100%

Study 2
Compound: Cc1nc(Nc2ncc(C(=O)Nc3c(C)cccc3Cl)s2)cc(N2CCN(CCO)CC2)n1
Mode: inhibitor
Quantity: inhibition
LATS2 (Homo sapiens, UniProt Q9NRM7); 10 µM: < 50%
CAMK4 (Homo sapiens, UniProt Q16566); 10 µM: < 50%
MARK3 (Homo sapiens, UniProt P27448); 1 µM: < 50%
GSK3A (Homo sapiens, UniProt P49840); 10 µM: < 50%
PIM3 (Homo sapiens, UniProt Q86V86); 10 µM: < 50%
PRKG2 (Homo sapiens, UniProt Q13237); 10 µM: < 50%
SRPK1 (Homo sapiens, UniProt Q96SB4); 10 µM: < 50%

Study 3
Cell line: A-375
Concentration: 100 µM
Time: 36 h
Quantity: viability
C[N+]1(C)CCCC(OC(=O)C(O)(c2ccccc2)c2ccccc2)C1 (stereo not shown): 113%
CCCCCNC(=N)N/N=C/c1c[nH]c2ccc(OC)cc12: 0.209%
CC(C)(C(=O)c1cccnc1)c1cccnc1: 106%
C[C@@H]1CC(=O)NN=C1c1ccc(NN=C(C#N)C#N)cc1: 27.2%
COC(=O)Nc1nc2ccc(C(=O)c3ccccc3)cc2[nH]1: 3.4%
N#Cc1ccc(C(c2ccc(C#N)cc2)n2cncn2)cc1: 108%
Cc1ccc(C(=O)c2ccc(CC(=O)O)n2C)cc1: 98.5%
N=C(N)NC(=O)c1nc(Cl)c(N)nc1N: 112% and 105%
C[C@@H](Oc1cc(-c2cnn(C3CCNCC3)c2)cnc1N)c1c(Cl)ccc(F)c1Cl: -1.04%
NC(=O)NO: 98.1%
Cc1cc(NS(=O)(=O)c2ccc(N)cc2)nc(C)n1: 109%

Study 4
Structure (SMILES): CCOC(=O)c1cc2cc(-c3cc(C(=O)NCc4ccc(C(=O)O)cc4)nn3C)ccc2[nH]1
Read-out: binding
Method: radioligand binding
Concentration: 10 µM
Quantity: inhibition
HTR2B (Homo sapiens, UniProt P41595): 8.13%
HTR5A (Homo sapiens, UniProt P47898): 14.8%
HTR3A (Homo sapiens, UniProt P46098): 34.8%
